Measurements from different studies.
Compare with care: the assays were run in different laboratories. Values joined by “and” are separate records of one study, mostly repeats; a detail may differ. ± marks the error that the study gave.
HCRTR1: Orexin/Hypocretin receptor type 1 (HCRTR1, Homo sapiens, UniProt O43613)
Sequence of UniProt O43613 (whole entry, looked up): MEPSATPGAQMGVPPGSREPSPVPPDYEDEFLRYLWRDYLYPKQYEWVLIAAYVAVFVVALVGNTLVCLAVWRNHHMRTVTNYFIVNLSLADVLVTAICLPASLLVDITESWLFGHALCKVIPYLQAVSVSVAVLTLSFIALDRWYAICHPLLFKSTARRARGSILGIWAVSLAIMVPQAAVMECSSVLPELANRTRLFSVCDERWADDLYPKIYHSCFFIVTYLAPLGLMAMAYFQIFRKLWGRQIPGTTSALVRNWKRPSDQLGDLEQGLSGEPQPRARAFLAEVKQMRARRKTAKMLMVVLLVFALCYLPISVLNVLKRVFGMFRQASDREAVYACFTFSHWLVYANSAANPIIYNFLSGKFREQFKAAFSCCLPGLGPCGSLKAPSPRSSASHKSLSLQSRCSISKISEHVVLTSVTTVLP

Nc1nc2c(ncn2[C@@H]2O[C@@H]3COP(=O)(O)O[C@H]3[C@H]2O)c(=O)[nH]1
Hill coefficient (cone cyclic nucleotide-gated channel, Morone saxatilis; ion current, agonist, inside-out patch clamp; after EDTA/EGTA, -40 mV, with: calmodulin 200 nM, Ca2+ 20 µM, Mg2+ 100 µM): 2.55 and 2.1

O=c1ccc2ccccc2o1
Vmax (CYP2A6 human; 7-hydroxylation, substrate; human liver microsomes; CYP2A6 added 54 pmol/mg, ratio 0.125): 8.7 ± 1.9 min⁻¹

MNYLH-OH
conversion to cyclic peptide (cytochrome P450 Blt (Micromonospora sp. MW-13); substrate, LC-MS; peptide; overnight, 30 °C, P450 0.5 µM, with: NADH 2 mM): 39%

CC(C)(C)c1cc(C(C)(C)C)c(NC(=O)c2c[nH]c3ccccc3c2=O)cc1O
CFTR activity (CFTR R352Q human; short-circuit current, potentiator; CFBE; 14.44 µM, with: forskolin 20 µM; baseline: PKA-activated wild type): 44.2 ± 3.3%

CN(C)c1cccc2c(S(=O)(=O)N[C@H](C(=O)Nc3ccc(C(=O)NO)cc3)c3ccccc3)cccc12
IC50 (HDAC (HeLa nuclear extract); enzyme activity, inhibitor): 9.7 ± 0.3 nM

CC1=C\[C@@H](O)C[C@@H](O)Cc2nc(co2)C(=O)N[C@H](C)C(=O)O[C@H](C(C)C)[C@H](C)/C=C/C(=O)NC\C=C\1
fold reduction of dipeptide formation (Escherichia coli 70S ribosome; fMet-Phe dipeptide formation; 5 µM, pH 7.5, 37 °C): ~5 fold

CC(C)N(CCC1CC2CN(C(=O)Nc3ccc(Br)cc3)CC2C1)C[C@H]1O[C@@H](n2cnc3c(N)ncnc32)[C@H](O)[C@@H]1O (some centres unmarked)
H3K79me2 level ratio (human DOT1L R231Q; inhibitor, western blot, item: H3K79me2 over histone H3; H460 DOT1L R231Q; concentration not given; baseline: cpd over SGC0946): 2.13

O=c1ccn([C@@H]2O[C@H](COP(=O)(O)OP(=O)(O)OP(=O)(O)O)[C@@H](O)[C@H]2O)c(=O)[nH]1
potency shift (P2Y2 receptor (human) RGE mutant; ERK1/2 phosphorylation, agonist; 1321N1 transfected; 5 min, 37 °C; baseline: RGE mutant over wild type): ~1000 fold

COc1cc2c(cc1OC)C(CC1CCCCC1)N(CC(=O)NCc1ccccc1)CC2 (centres unmarked)
Kb (HCRTR1; calcium signal, antagonist, fluorescence): > 10000 nM

CC(C)(C)C(=O)Nc1ccc(NC(=O)N2CC3CC(N(CC(=O)N4CCSCC4)C[C@H]4O[C@@H](n5cnc6c(N)ncnc65)[C@H](O)[C@@H]4O)CC3C2)cc1 (some centres unmarked)
H3K79me2 level ratio (human DOT1L R231Q; inhibitor, western blot, item: H3K79me2 over histone H3; H460 DOT1L R231Q; concentration not given; baseline: cpd over SGC0946): 1.21

Cn1c(=O)oc2ccc(-c3ccc(C[C@@H](C#N)NC(=O)[C@@H]4CNCCCO4)cc3)cc21
steady-state inhibition (neutrophil elastase; enzyme activity, inhibitor; human, whole blood; oral, 40 mg once daily, with: zymosan): 59%

O=c1c(O[C@@H]2O[C@@H](CO)[C@H](O)[C@H]2O)c(-c2ccc(O)c(O)c2)oc2cc(O)cc(O)c12
CD value (NAD(P)H quinone oxidoreductase, mouse; enzyme induction, inducer; Hepa-1c1c7; concentration doubling activity): > 20 µM

Nc1nc2c(ncn2[C@@H]2O[C@H](CO)[C@@H](O)[C@H]2O)c(=O)[nH]1
Ki (Trichomonas vaginalis; transport, item: nucleoside transporter; with: thymidine): 36500 ± 7300 nM

CCCn1cnc2cc(/C=C/C(=O)NO)ccc2c1=O
IC50 (histone deacetylase; enzyme activity, inhibitor; HeLa nuclear extract): 67 ± 2 nM

O=C(O)c1cc(O)c(O)c(O)c1
CD value (NAD(P)H quinone oxidoreductase, mouse; enzyme induction, inducer; Hepa-1c1c7; concentration doubling activity): > 20 µM

COc1cc2c(cc1OC)C(Cc1ccc(O)c([N+](=O)[O-])c1)N(CC(=O)NCc1ccccc1)CC2 (centres unmarked)
Kb (HCRTR1; calcium signal, antagonist, fluorescence): > 10000 nM

COC(=O)CC(O)(CC(=O)OC)C(=O)O
CD value (NAD(P)H quinone oxidoreductase, mouse; enzyme induction, inducer; Hepa-1c1c7; concentration doubling activity): > 20 µM

CC(C)(C)C(=O)Nc1ccc2[nH]c(CN3CCC(N(CCCN4CCC(O)CC4)C[C@H]4O[C@@H](n5cnc6c(N)ncnc65)[C@H](O)[C@@H]4O)CC3)nc2c1
H3K79me2 level ratio (human DOT1L R231Q; inhibitor, western blot, item: H3K79me2 over histone H3; H460 DOT1L R231Q; concentration not given; baseline: cpd over SGC0946): 0.591

CCC(C)(O)C(O)C(=O)O (centres unmarked)
EC50 (rhodopsin wild type-Rluc fusion; reporter gene; HEK293; 24 h): 590 nM

CN(C[C@H]1O[C@@H](n2cnc3c(N)ncnc32)[C@H](O)[C@@H]1O)C1CCN(Cc2nc3cc(NC(=O)C(C)(C)C)ccc3[nH]2)CC1
H3K79me2 level ratio (human DOT1L R231Q; inhibitor, western blot, item: H3K79me2 over histone H3; H460 DOT1L R231Q; concentration not given; baseline: cpd over SGC0946): 1.06

NCCOB(c1ccccc1)c1ccccc1
EC50 ratio (TRPV3 D641N (mouse); agonist, Fluo-4 calcium; HEK293 transfected; baseline: pH 7.4 over pH 5.6): ~21 fold

COC(=O)CN(C[C@H]1O[C@@H](n2cnc3c(N)ncnc32)[C@H](O)[C@@H]1O)C1CC2CN(C(=O)Nc3ccc(NC(=O)C(C)(C)C)cc3)CC2C1 (some centres unmarked)
H3K79me2 level ratio (human DOT1L R231Q; inhibitor, western blot, item: H3K79me2 over histone H3; H460 DOT1L R231Q; concentration not given; baseline: cpd over SGC0946): 1.91

C[C@H](N)C(=O)O
Km (system A amino acid transporter, mouse; Na+-dependent uptake, substrate; Ehrlich ascites cells; 1 min, pH 7.4, with: 107 mEq/L Na+): 400 µM

COC(=O)c1cc(O)c(O)c(O)c1
CD value (NAD(P)H quinone oxidoreductase, mouse; enzyme induction, inducer; Hepa-1c1c7; concentration doubling activity): 14.1 ± 2.3 µM

O=C(/C=C/c1ccc2c(=O)n(CC3CCCCC3)cnc2c1)NO
IC50 (histone deacetylase; enzyme activity, inhibitor; HeLa nuclear extract): 124 ± 4 nM

GKKVITAFCEGLK
relative concentration for IL-2 production (3.L2 T cell receptor; agonist; peptide, 3.L2.12 T cell hybridoma; concentration not given; baseline: over Hb(64-76) peptide): 10 to 100 fold

CC(C)(C)C(=O)Nc1ccc2nc(CN3CCC(N(CC(=O)N4CCCC4)C[C@H]4O[C@@H](n5cnc6c(N)ncnc65)[C@H](O)[C@@H]4O)CC3)[nH]c2c1
H3K79me2 level ratio (human DOT1L R231Q; inhibitor, western blot, item: H3K79me2 over histone H3; H460 DOT1L R231Q; concentration not given; baseline: cpd over SGC0946): 1.23

CC(=O)OCc1ccc(C=O)o1
CD value (NAD(P)H quinone oxidoreductase, mouse; enzyme induction, inducer; Hepa-1c1c7; concentration doubling activity): > 20 µM

C[C@H](NC(=O)[C@H](CC(N)=O)NC(=O)[C@H](Cc1ccc(O)cc1)NC(=O)[C@H](CCC(=O)O)NC(=O)[C@H](CS)NC(=O)[C@H](CC(=O)O)NC(=O)[C@H](C)N1C/C=C/CCC(=O)N[C@@H]([C@@H](C)O)C(=O)N[C@@H](C)C1=O)C(=O)N[C@@H](CCCNC(=N)N)C(N)=O
inhibition (HIF-1α; VEGF transcription, qRT-PCR, item: VEGF mRNA; HeLa; 1 µM, 12 h, with: deferoxamine-mimicked hypoxia): 45 ± 8%

COc1cc(C=O)cc(OC)c1O
lowest inhibitory concentration (UGT (rat); p-NP glucuronidation, inhibitor; rat kidney microsomes): ≥ 10 µM

CC(=O)OC(CC(=O)O)C[N+](C)(C)C (centres unmarked)
EC50 (rhodopsin wild type-Rluc fusion; reporter gene; HEK293; 24 h): 3400 nM

CC(C)(C)C(=O)Nc1ccc2[nH]c(CN3CCC(N(CCC(=O)N4CCSCC4)C[C@H]4O[C@@H](n5cnc6c(N)ncnc65)[C@H](O)[C@@H]4O)CC3)nc2c1
H3K79me2 level ratio (human DOT1L R231Q; inhibitor, western blot, item: H3K79me2 over histone H3; H460 DOT1L R231Q; concentration not given; baseline: cpd over SGC0946): 0.854

N#Cc1c(-c2ccc(F)cc2)c(-c2ccc(F)cc2)nn(Cc2nn[nH]n2)c1=O
minimum effective concentration (tubulin (bovine); aberrant polymer assembly, turbidity; 37 °C): 2 µM

CC1=C(/C=C/C(C)=C/C=C/C(C)=C\C(=O)O)C(C)(C)CCC1
EC50 (thyroid hormone receptor, rat; reporter gene, agonist, luciferase reporter, qHTS; GH3.TRE-Luc): < 10000 nM

GWGSFFKKAAHVGKHVGKAALTHYL-NH2 (C-amide)
CD slope at 272 nm (15 bp duplex DNA; DNA binding, near-UV circular dichroism; peptide; room temperature, with: 1.66 µM DNA, peptide titrated): -0.121 ± 0.003

CC(O)CN (centres unmarked)
EC50 (rhodopsin wild type-Rluc fusion; reporter gene; HEK293; 24 h): 920 nM

CCN1CCN(C(=O)CN(C[C@H]2O[C@@H](n3cnc4c(N)ncnc43)[C@H](O)[C@@H]2O)C2CCN(Cc3nc4ccc(NC(=O)C(C)(C)C)cc4[nH]3)CC2)CC1
H3K79me2 level ratio (human DOT1L R231Q; inhibitor, western blot, item: H3K79me2 over histone H3; H460 DOT1L R231Q; concentration not given; baseline: cpd over SGC0946): 0.937

KSPNPRF (Cy5.5-labelled)
Kd (human HER2; flow cytometry; peptide, HT-29; 1 h, 4 °C): 21 nM
